Measurements gathered from unrelated publications.
Each line is one published result; not all experiments were run side by side. Values joined by “and” are separate records of one study, mostly repeats; a detail may differ. ± gives the spread as reported. Values after ≈ are worked out from the molar mass of the structure shown.
Chain of UniProt P08183 (whole entry, looked up): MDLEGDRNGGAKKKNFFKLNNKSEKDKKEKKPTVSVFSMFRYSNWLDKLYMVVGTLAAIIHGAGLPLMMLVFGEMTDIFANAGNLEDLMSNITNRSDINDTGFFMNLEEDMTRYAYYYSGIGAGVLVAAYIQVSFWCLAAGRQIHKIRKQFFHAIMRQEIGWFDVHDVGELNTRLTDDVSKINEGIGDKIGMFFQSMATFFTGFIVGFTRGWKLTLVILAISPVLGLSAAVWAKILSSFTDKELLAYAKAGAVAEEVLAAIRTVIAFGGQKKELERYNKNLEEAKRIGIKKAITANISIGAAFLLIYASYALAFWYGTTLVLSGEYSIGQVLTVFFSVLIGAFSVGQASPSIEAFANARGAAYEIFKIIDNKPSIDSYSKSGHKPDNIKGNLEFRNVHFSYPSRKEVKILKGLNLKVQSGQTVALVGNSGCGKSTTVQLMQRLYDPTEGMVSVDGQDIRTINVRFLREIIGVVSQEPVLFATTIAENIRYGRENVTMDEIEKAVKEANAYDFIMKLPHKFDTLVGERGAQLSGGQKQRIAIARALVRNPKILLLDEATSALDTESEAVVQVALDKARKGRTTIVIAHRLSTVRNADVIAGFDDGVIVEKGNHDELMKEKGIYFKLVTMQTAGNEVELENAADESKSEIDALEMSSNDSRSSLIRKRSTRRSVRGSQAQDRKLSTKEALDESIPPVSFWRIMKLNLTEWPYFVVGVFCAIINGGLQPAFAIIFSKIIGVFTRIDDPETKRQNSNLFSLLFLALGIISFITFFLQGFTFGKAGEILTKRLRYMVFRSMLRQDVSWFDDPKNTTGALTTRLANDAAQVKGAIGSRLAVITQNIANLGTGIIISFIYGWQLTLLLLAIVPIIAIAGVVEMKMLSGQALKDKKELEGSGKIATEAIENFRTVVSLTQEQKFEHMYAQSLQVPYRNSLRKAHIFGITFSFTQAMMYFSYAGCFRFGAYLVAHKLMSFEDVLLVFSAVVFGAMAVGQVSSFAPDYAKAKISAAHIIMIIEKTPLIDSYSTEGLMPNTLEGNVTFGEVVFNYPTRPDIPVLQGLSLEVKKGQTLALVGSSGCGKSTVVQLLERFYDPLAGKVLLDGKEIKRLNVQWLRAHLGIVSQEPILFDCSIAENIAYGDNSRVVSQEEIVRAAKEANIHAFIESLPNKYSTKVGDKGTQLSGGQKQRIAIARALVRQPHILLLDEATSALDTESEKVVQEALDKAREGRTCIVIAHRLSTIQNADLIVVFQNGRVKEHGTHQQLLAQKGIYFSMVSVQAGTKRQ
Chain of UniProt P11509 (whole entry, looked up): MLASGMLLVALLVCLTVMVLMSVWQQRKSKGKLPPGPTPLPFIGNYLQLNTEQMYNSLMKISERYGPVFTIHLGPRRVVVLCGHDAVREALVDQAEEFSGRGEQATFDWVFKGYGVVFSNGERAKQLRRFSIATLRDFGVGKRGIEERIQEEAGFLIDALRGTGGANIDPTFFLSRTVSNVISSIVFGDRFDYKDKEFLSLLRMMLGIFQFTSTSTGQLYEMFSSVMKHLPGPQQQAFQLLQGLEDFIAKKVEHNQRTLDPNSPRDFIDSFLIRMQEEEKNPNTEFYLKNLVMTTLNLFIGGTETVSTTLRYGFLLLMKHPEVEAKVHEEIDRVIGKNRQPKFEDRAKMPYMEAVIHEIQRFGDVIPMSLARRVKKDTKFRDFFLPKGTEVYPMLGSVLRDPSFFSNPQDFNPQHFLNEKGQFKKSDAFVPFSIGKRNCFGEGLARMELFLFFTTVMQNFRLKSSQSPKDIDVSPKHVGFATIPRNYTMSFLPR
Chain of UniProt P33261 (whole entry, looked up): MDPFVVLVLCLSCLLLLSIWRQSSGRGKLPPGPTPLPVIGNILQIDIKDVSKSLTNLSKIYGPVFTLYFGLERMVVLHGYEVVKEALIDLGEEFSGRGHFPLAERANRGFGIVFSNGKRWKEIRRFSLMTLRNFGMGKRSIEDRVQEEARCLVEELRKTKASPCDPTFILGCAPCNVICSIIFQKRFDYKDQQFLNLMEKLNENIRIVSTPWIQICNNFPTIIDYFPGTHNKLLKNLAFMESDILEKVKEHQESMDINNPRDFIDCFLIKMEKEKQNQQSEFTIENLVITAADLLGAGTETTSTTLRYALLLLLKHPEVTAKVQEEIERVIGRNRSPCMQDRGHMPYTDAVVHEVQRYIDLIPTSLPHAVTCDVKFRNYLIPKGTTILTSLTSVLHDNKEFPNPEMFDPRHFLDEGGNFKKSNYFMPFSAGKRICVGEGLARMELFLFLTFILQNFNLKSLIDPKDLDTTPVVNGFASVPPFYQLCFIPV

Compound | tested on | assay | test system | conditions | scale | quantity | result
Cc1nc2cccc(OCC(C)(C)C(=O)NC(C)C)c2c(N)c1C(=O)[O-].[Na+] | Salmonella typhimurium | – | TA1537 | 0.80 mg per plate, without S9, plate incorporation | – | revertant colonies per plate | 13 ± 2
CN(C)CCCNC(=O)[C@@H]1NC(=O)[C@@H]2Cc3ccc(cc3)Oc3cc4cc(c3O)-c3ccc5c(c[nH]c5c3)C[C@@H](NC(=O)C(NC(=O)CCCCCN)c3ccc(O)cc3)C(=O)N[C@H](c3ccc(O)cc3)C(=O)N[C@H]4C(=O)N[C@@H](C(=O)N2C)c2ccc(cc2)Oc2cc1ccc2O (stereo partly shown) | human red blood cells | – | – | 2 µg/mL, 1 h, 37 °C, 1% DMSO | – | hemolysis | 8.53%
Cc1sc2c(c1C)C(c1ccc(Cl)cc1)=N[C@@H](CC(=O)OC(C)(C)C)c1nnc(C)n1-2 | – | – | CD1 mouse, male, plasma | intravenous, 5 mg/kg | – | clearance | 39.2 mL/min/kg
CNC(=O)C[C@H](Cc1ccc(F)cc1)NC(=O)[C@@H](Cc1ccc(Cl)cc1Cl)NC(=O)[C@H](N)Cc1ccccc1C#N | Huh-7-ACE2 | CellTiter-Glo | – | 0.000763 µM, 48 h, unit not given | relative to: DMSO | viability | 0.941 and 1.07 and 0.955
Cc1ccc(NS(=O)(=O)c2c(C(=O)N3CCCCCC3)c(C)n(C)c2C)c(Cl)c1 | human cells | – | – | 0.046 µM, 60 h | – | viability | 96.4%
CC[C@H](C)[C@H](NC(=O)[C@H](CCCCN)NC(=O)[C@H](CCCCN)NC(=O)[C@H](Cc1ccccc1)NC(=O)[C@H](Cc1ccccc1)NC(=O)[C@H](CCCCN)NC(=O)[C@H](CCCCN)NC(=O)[C@H](Cc1ccccc1)NC(=O)[C@H](CCCNC(=N)N)NC(=O)[C@@H](N)CCCCN)C(=O)N[C@@H](CCCCN)C(=O)N[C@@H](CCCCN)C(=O)N[C@@H](CO)C(=O)N[C@H](C(=O)N[C@@H](CCCCN)C(=O)N[C@@H](CCCCN)C(=O)N[C@@H](CCCNC(=N)N)C(=O)N[C@H](C(=O)N[C@@H](CCCCN)C(=O)N[C@@H](CCCCN)C(=O)N[C@@H](CC(C)C)C(=O)N[C@@H](Cc1ccccc1)C(=O)N[C@@H](CCCCN)C(=O)N[C@@H](CCCCN)C(=O)N1CCC[C@H]1C(=O)N[C@@H](CCCNC(=N)N)C(=O)N[C@H](C(=O)N[C@H](C(=O)N1CCC[C@H]1C(=O)N[C@H](C(=O)N[C@@H](CO)C(=O)N[C@H](C(=O)N1CCC[C@H]1C(=O)N[C@@H](Cc1ccccc1)C(=O)O)[C@@H](C)CC)[C@@H](C)CC)[C@@H](C)CC)C(C)C)C(C)C)C(C)C | Pseudomonas aeruginosa | – | P1 | after heating at 37 °C | – | MIC | 4 µg/mL (≈ 0.948 µM)
C[C@@H](c1ccc2nccn2c1)n1nnc2ncc(-c3cn[nH]c3)nc21 | CYP2C19 (Homo sapiens, UniProt P33261) | – | human liver microsomes | 10 and 50 µM, 30 min preincubation, together with: ± NADPH | – | time-dependent inhibition | < 20%
COc1cc2c(cc1NC(=O)c1cncn1C)C[C@H]1[C@H]3CCCC[C@@]23CCN1C | – | metabolic stability | mouse, liver microsomes | – | – | half-life | 14.4 min
CC(C)[C@@H]1NC(=O)CNC(=O)[C@H](CC(N)=O)NC(=O)[C@H](CCCNC(=N)N)NC(=O)[C@H](Cc2ccc(O)cc2)NC(=O)[C@H](C(C)C)NC(=O)[C@@H](NC(=O)[C@@H](NC(=O)[C@H](CC(N)=O)NC(=O)[C@H](Cc2c[nH]c3ccccc23)NC(=O)[C@H](C)NC(=O)[C@H](Cc2ccccc2)NC(=O)CNC(=O)[C@H](CCCCN)NC(=O)[C@H](Cc2ccccc2)NC(=O)[C@H](Cc2ccccc2)NC(=O)[C@H](CCCCN)NC(=O)OCC2c3ccccc3-c3ccccc32)C(C)C)CSSC[C@@H](C(=O)N[C@@H](Cc2c[nH]cn2)C(=O)N[C@@H](CCCNC(=N)N)C(=O)N[C@@H](CCCNC(=N)N)C(=O)N[C@@H](C)C(=O)N[C@@H](CC(N)=O)C(N)=O)NC(=O)[C@H](C(C)C)NC(=O)[C@H](CCCNC(=N)N)NC1=O | – | – | ICR mouse, blood | intramammary, 5 mg/kg, day 5, 3 d dosing | – | ALT | 47.6 ± 2.8 IU/L
COc1ccc(-n2cc(C(=O)N3C[C@]4(OC(=O)c5ccccc5NC(C)=O)CC[C@H](OC)[C@@]56[C@@H]4C[C@@H]([C@@H]35)[C@@]3(O)C[C@H](OC)[C@H]4C[C@@H]6[C@]3(O)[C@H]4OC)nn2)cc1 | – | – | Sprague-Dawley rat, plasma | intravenous, 2 mg/kg, 0.25 h | – | plasma concentration | 63.3 ng/mL
NC[C@]1(CC(=O)O)CC[C@@H]([18F])CC1 | – | PET, arterial plasma | rhesus monkey, plasma parent | intravenous, baseline | – | slow-phase half-life | 88 min
CNC(=O)C[C@H](Cc1ccc(F)cc1)NC(=O)[C@@H](Cc1ccc(Cl)cc1Cl)NC(=O)[C@H](N)Cc1ccccc1[N+](=O)[O-] | Huh-7-ACE2 | CellTiter-Glo | – | 0.00153 µM, 48 h, unit not given | relative to: DMSO | viability | 1.17 and 0.96 and 1.11
CC[C@H](C)[C@H](NC(=O)[C@H](Cc1ccccc1)NC(=O)[C@H](CCC(=O)O)NC(=O)[C@H](CCCCN)NC(=O)[C@H](C)NC(=O)[C@H](C)NC(=O)[C@H](CCC(N)=O)NC(=O)CNC(=O)[C@H](CCC(=O)O)NC(=O)[C@H](CC(C)C)NC(=O)[C@H](Cc1ccc(O)cc1)NC(=O)[C@H](CO)NC(=O)[C@H](CO)NC(=O)[C@@H](NC(=O)[C@H](CC(=O)O)NC(=O)[C@H](CO)NC(=O)[C@@H](NC(=O)[C@H](Cc1ccccc1)NC(=O)[C@@H](NC(=O)CNC(=O)[C@H](CCC(=O)O)NC(=O)[C@H](C)NC(=O)[C@@H](N)Cc1c[nH]cn1)[C@@H](C)O)[C@@H](C)O)C(C)C)C(=O)N[C@@H](C)C(=O)N[C@@H](Cc1c[nH]c2ccccc12)C(=O)N[C@@H](CC(C)C)C(=O)N[C@H](C(=O)N[C@@H](CCCCN)C(=O)NCC(=O)N[C@@H](CCCNC(=N)N)C(=O)NCC(=O)N[C@@H](Cc1ccccc1)C(=O)N[C@@H](Cc1ccccc1)C(=O)NCC(=O)O)C(C)C | DPP-4 (recombinant) | substrate, LC-MS | – | 500 µM, 4 h | – | remaining peptide | 93%
CCOc1ccc(CN2CC[C@H]2C(=O)NC)cc1-c1cccc(C(=O)NC[C@@H]2COC(C)(C)O2)c1 | Huh-7-ACE2 | CellTiter-Glo | – | 0.781 µM, 48 h, unit not given | relative to: DMSO | viability | 0.997 and 1.04 and 0.868
O=C1NC2(CC2)COc2ncc(F)cc2[C@H]2COCCN2c2ccn3ncc1c3n2 | – | – | Sprague-Dawley rat, female, serum | oral, 10 mg/kg/day, 4 weeks daily, end of recovery period | – | creatine kinase activity | 322 ± 86 U/L
CNC(=O)CC1CN(C(=O)c2ccc(C(F)(F)F)cn2)CCN1C(=O)c1cccnn1 (stereo not shown) | Huh-7-ACE2 | CellTiter-Glo | – | 1.562 µM, 48 h, unit not given | relative to: DMSO | viability | 1.1 and 1.02 and 1.06
Cc1cc(-c2ccc3ccccc3c2)nnc1NCCN1CCN(C)CC1 | Cytochrome P450 2A6 (CYP2A6, Homo sapiens, UniProt P11509) | substrate | recombinant enzyme | 1000 nM | – | half-life | > 30 min
CNC(=O)C[C@H](Cc1ccncc1)NC(=O)[C@@H](Cc1cccc(Br)c1)NC(=O)[C@@H](N)Cc1cccc(F)c1 | Huh-7-ACE2 | CellTiter-Glo | – | 0.00305 µM, 48 h, unit not given | relative to: DMSO | viability | 0.888 and 0.891 and 0.943
CC(=O)NCCCC[C@@H]1NC(=O)[C@H](Cc2c[nH]c3c(C)cccc23)NC(=O)[C@H]([C@@H](C)O)NC(=O)[C@H](CC(N)=O)NC(=O)[C@@H](NC(C)=O)C(C)(C)SSC(C)(C)[C@@H](C(=O)N[C@@H](Cc2ccc(OCCN)cc2)C(=O)N[C@@H](Cc2ccc3ccccc3c2)C(=O)NC2(C(=O)N[C@@H](CCC(=O)O)C(=O)N[C@@H](CC(N)=O)C(=O)N[C@@H](Cc3cccnc3)C(=O)N(C)CC(N)=O)CCOCC2)NC1=O | ABCB1 (Homo sapiens, UniProt P08183) | transport, inhibitor | LLC-PK1 expressing MDR1 | 1 µM, 90 min, together with: [3H]digoxin | – | efflux ratio | 17.2

For quick reference, copied from above:
Compound | tested on | assay | test system | conditions | scale | quantity | result
NC[C@]1(CC(=O)O)CC[C@@H]([18F])CC1 | – | PET, arterial plasma | rhesus monkey, plasma parent | intravenous, baseline | – | slow-phase half-life | 88 min
